{"data": "Results from different studies", "note": "Every numbered part comes from another study and shows a few of its results, in no order."}
{"data": "Series 1", "target": "Ras GTPase-activating protein-binding protein 1, full length (G3BP1, Homo sapiens, UniProt Q13283)", "method": "RNA Bind-n-Seq", "molecule type": "RNA", "sample": "in vitro", "tested at": "200 nM", "notes": "whole 134-nt RNA, ends assumed", "together with": "150 mM KCl", "baseline": "input library", "reading": "higher = stronger binding", "sequence of UniProt Q13283 (whole entry, looked up)": "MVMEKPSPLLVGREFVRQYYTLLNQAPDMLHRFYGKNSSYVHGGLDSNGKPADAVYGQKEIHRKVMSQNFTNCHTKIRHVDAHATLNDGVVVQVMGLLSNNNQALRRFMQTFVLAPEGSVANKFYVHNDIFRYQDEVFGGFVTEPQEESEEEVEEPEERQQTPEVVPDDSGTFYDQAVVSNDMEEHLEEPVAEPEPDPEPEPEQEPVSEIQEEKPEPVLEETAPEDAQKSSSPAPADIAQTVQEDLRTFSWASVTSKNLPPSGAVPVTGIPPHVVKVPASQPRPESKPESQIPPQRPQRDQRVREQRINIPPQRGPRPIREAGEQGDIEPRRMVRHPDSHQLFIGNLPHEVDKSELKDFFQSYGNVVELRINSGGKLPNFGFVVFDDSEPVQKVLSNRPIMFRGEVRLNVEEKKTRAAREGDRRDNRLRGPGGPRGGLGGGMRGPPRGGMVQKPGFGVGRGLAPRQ"}
{"Sequence": "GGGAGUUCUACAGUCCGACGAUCUGGGAGGUGGAUUUUGCUUAUUUUUUUAGCUCAUUUCCAGGGGUGGGAAUUUUUUUUUAAUAUGUGUCAUGAAUAAAGUUGUUUUUGAAAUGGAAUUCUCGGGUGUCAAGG", "log2 enrichment": 0.198}
{"Sequence": "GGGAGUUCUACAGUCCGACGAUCCACAGACAACACGCACCCACACAGACACAGAGCGAAGGGGUUGGGAUGGGGACAGGGUGCACAGCAGGGCGGGGUAGGACCCCAGCCCCUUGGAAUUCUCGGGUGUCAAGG", "log2 enrichment": 1.93}
{"Sequence": "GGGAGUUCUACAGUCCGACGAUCCAAGUCCUGUGCUACACAUCGUAUGUACCGAAUCAAAUUUAAACCCAAACCCAAAAAAGUAUUAUGUUACGCCGUUCGGAUCUGCACUUCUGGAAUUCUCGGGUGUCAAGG", "log2 enrichment": -0.487}
{"Sequence": "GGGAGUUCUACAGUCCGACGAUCUCCUGUGCUACACAUCGUAUGUACCGAAUCGGUUUUUUUGGUUUUUUUGGAAAAAAAGGAAAGUAUUAUGUUACGCCGUUCGGAUCUGCAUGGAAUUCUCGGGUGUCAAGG", "log2 enrichment": -0.884}
{"Sequence": "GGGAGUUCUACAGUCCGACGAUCCUCAAGUCCUGUGCUACACAUCGUAUGUACCGAAUCGGGAAGGAAGGGAAGGGAAAGUAUUAUGUUACGCCGUUCGGAUCUGCACUUCCAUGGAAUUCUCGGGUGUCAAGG", "log2 enrichment": 0.22}
{"Sequence": "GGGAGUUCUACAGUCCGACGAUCGUCCUGUGCUACACAUCGUAUGUACCGAAUCGGGGAAAAAAAGGGGAAAGGGGUGGGGAAAGUAUUAUGUUACGCCGUUCGGAUCUGCACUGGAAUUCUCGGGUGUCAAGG", "log2 enrichment": 0.188}
{"Sequence": "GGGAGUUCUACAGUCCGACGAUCUCUGAGGUCACCAAGCCUCCUCCUUGCUUGGAGAACUCCUCGCCUCCCUCCAGGAUUCCGGAGCCUGAAUCCCCAGCGAAGCCAAACGUCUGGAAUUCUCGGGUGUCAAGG", "log2 enrichment": 0.142}
{"Sequence": "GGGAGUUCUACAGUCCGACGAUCCUGUGCUACACAUCGUAUGUACCGAAUCGGGUUUUUUUGGUUUUUUUGGGGUUUUUUUGGGAAAGUAUUAUGUUACGCCGUUCGGAUCUGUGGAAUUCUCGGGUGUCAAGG", "log2 enrichment": -1}
{"Sequence": "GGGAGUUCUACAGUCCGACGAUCUGGCCCUGGUGGCAUGCGGGGAGGAAGAGGUGGUCUCAUGGAUCGUGGUGGUCCCGGUGGAAUGUUCAGAGGUGGCCGUGGUGGAGACAGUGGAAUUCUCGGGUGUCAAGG", "log2 enrichment": 0.43}
{"data": "Series 2", "target": "Histone acetyltransferase KAT6A, winged helix 1, GST fusion (KAT6A, Homo sapiens, UniProt Q92794, residues 1-85)", "method": "protein binding microarray", "molecule type": "double-stranded DNA, one strand shown", "sample": "in vitro", "tested at": "not given", "notes": "8-mer, flanks averaged, mean of 2 arrays, mostly near background", "baseline": "not given", "reading": "higher = stronger binding", "Target sequence (chain)": "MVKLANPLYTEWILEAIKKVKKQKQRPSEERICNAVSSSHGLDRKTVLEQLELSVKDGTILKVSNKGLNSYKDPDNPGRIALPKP"}
{"Sequence": "GGCTCGTA", "E-score": 0.0464}
{"Sequence": "ATGGAGGC", "E-score": 0.0459}
{"Sequence": "CTGCAGTA", "E-score": -0.173}
{"Sequence": "ATTAATCC", "E-score": -0.0748}
{"Sequence": "ACGCGACT", "E-score": 0.0652}
{"Sequence": "GGTTCGTA", "E-score": -0.0406}
{"Sequence": "CAACACGG", "E-score": 0.207}
{"Sequence": "GGCAACTA", "E-score": -0.0484}
{"Sequence": "AACTGTAG", "E-score": -0.174}
{"Sequence": "ACTTATGC", "E-score": -0.0979}
{"Sequence": "ATGGGAAC", "E-score": -0.125}
{"data": "Series 3", "target": "RNA binding protein fox-1 homolog 2, RRM domain, GST-SBP tag (RBFOX2, Homo sapiens, UniProt O43251-10, residues 100-194)", "method": "RNA Bind-n-Seq", "molecule type": "RNA", "sample": "in vitro", "tested at": "365 nM", "notes": "natural RNA segment, single round, ends assumed", "baseline": "no-protein control", "reading": "higher = stronger binding", "Construct (chain)": "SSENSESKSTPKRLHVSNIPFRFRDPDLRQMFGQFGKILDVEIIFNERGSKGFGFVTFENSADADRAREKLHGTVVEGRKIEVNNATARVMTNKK"}
{"Sequence": "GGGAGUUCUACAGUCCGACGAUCAGAAAAGUAAUUUAUUCUGUCAAGAAAUAAAAAAAUAGGCUUUGUGUAUGGUUAAACUGUAAAUCUUAUGUUUACAAAAUACUGUAAUUUUCAGGAAAUCACUGUAUUAGUGGAAUUCUCGGGUGCCAA", "RBNS enrichment (R)": 0.461}
{"Sequence": "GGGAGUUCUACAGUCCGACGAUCUUUUCCAGUGUGGUUUUUAACAGAUAAUACAUUUCUUCCACAUUCAGAUUAGUAUUCGGACAUGAAUCCAUUCUAUAAAACACAUCGUGUUCAUGAUAGUGUAUAUUUUAUGGAAUUCUCGGGUGCCAA", "RBNS enrichment (R)": 0.342}
{"Sequence": "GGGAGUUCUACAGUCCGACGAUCUCCGUCCCCCUGGCCCCUCAGUGUCCAUGUCUUGAGCUUAAUAAAUGUGCAUUUGGUUUUUUCCUCUGUUCUGUCUGUGUGUUCUCAUCUGUGGGGCACGGUGUGGGUAGUGGAAUUCUCGGGUGCCAA", "RBNS enrichment (R)": 0.593}
{"Sequence": "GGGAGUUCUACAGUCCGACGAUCAAAACUGUAGAAUAGAUAUUUUUAAGGCUAUAUGUAGUGUAUGUGUCUUUUAAUAGAUAUAGGCAUCUGUUCAUCCACAUUUGAACACAGAGCUAAAGAAACGUUUUUUAUGGAAUUCUCGGGUGCCAA", "RBNS enrichment (R)": 0.809}
{"Sequence": "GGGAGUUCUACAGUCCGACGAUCCCCUCUAUUACAAGAGUCCGCCUUGCCUGAGUCCUCCCUGCUGAGUAAAGCUACCCUCCCAGGUCCAGUUUGUGUCUUGUGUUUGGGCCCCGCAAGGAGCAGUGGCGUCAUGGAAUUCUCGGGUGCCAA", "RBNS enrichment (R)": 7.21}
{"Sequence": "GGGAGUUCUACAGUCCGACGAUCCAUACCUGCCUCAGCCUGACAGGAGUAGGUUUUCCGCAACCCACUGUGCUGAGACAGUUGAUGUGAUGCAAACUAUUCUUGGAGUGUGUUGUUUUCUUUGGCCCAAGGGUUGGAAUUCUCGGGUGCCAA", "RBNS enrichment (R)": 0.42}
{"Sequence": "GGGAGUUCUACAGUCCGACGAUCAAUGUAAAUAUUUUCUUUCCAAGUUGUAAGUUUUCAUAUCAUGUGUUGUAAAGUUUUCCUAAACGAGGCUUUAACGUAAACACUGGUGACAUAAACCAUUCAUUGCUACCUGGAAUUCUCGGGUGCCAA", "RBNS enrichment (R)": 0.478}
{"Sequence": "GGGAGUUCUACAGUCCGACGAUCACUCAGAACAAUUUAACUUGCUAAUUAUAUCACCUUCCAGAUUGGAGAAAGGAGACAGUAAGGUAUUUUGCCUGCCUUGUGAUGCCCUCCCCUGACCACCCUACCUUUUUUGGAAUUCUCGGGUGCCAA", "RBNS enrichment (R)": 0.863}
{"Sequence": "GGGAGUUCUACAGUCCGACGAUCAAAAGAUUGCAUUUACCUUUUCAGUGGUAGAAAAUCAUUUAGUUCUUUGCUAUAAAUGAUUCAGAAUUUUGUCAGAUUUUGUAGGUUGUAUCAUCGUAAGACGGAGUUGCUGGAAUUCUCGGGUGCCAA", "RBNS enrichment (R)": 0.716}
{"Sequence": "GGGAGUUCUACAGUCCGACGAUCCUUCAACUUACUUGUUCUAAGCACAGGGUUUUUUUUAUUUAGCAUCAAAGGACAUUUUUACUUUCUUGGAUUUAGAGCCAACAACUAGGAACGUACUUAUGUAGGACAGAUGGAAUUCUCGGGUGCCAA", "RBNS enrichment (R)": 0.77}
{"data": "Mixed results"}
{"Substance": "PhoQ, residues 284 288 289 292 302 303 ASTSDA", "target": "PhoP, residues 12 14 15 18 19 AQALL (Escherichia coli, UniProt P23836)", "test": "Sort-seq, measured: YFP reporter", "system": "E. coli", "conditions": "PhoQ-PhoP variant library, together with: 10 µM Mg2+", "scale": "baseline: high Mg2+ state, higher = stronger signaling", "quantity": "fold induction", "result": 6.59}
{"note": "Excerpt of the above (series 2):"}
{"Sequence": "ATTAATCC", "E-score": -0.0748}
{"Sequence": "ACGCGACT", "E-score": 0.0652}
{"Sequence": "GGTTCGTA", "E-score": -0.0406}
{"Sequence": "CAACACGG", "E-score": 0.207}
